Published values from different studies.
Numbered parts are unrelated; each lists some results of a single study.

Series 1 — technique: RNA Bind-n-Seq; form: RNA; sample: in vitro; concentration: 200 nM; setting: whole 134-nt RNA, ends assumed; together with: 150 mM KCl; baseline: input library; direction: higher = stronger binding
Target: Fragile X messenger ribonucleoprotein 1, C-terminal low-complexity region (Fmr1, Mus musculus, UniProt P35922)
Constant ends, left off below: GGGAGUUCUACAGUCCGACGAUC … UGGAAUUCUCGGGUGUCAAGG
Sequence | log2 enrichment
UCCUGUGCUACACAUCGUAUGUACCGAAUCGGGAAAAAAAGGGAAAGGGAAAAAAAGGGAAAGUAUUAUGUUACGCCGUUCGGAUCUGCA | -0.28
CUGAAGAGUCUGAGGAUGCCCAAUCACAGAGCCAAGCAGAUGAAGAGGAGGAAGAUGAUGAUUUUGGGGUGGAGUACUUGCUUGCCAGGG | -0.0635
CACAGACAACACGCACCCACACAGACACAGAGGGAAAGGGUUGGGAUGGGGACAGGGUGCACAGCAGGGCGGGGUAGGACCCCAGCCCCU | 1.28
ACCAUGCAGGUGGGCAUCUUUGGGAAGUGGGGGAAGGGGGGGAUAGGGAGGGGGGUAACACUUUGGGAACAGGUGGUCCCAGGUCGUUUC | 0.887
UAACUUUAGAGGAAGAUCUGAUGGAUAUGGCAGUGGACGUGGAUUUGGGGAUGGCUAUAAUGGGUAUGGAGGAGGACCUGGAGGUGGCAA | 0.398

Series 2 — technique: protein binding microarray; form: double-stranded DNA, one strand shown; sample: in vitro; concentration: not given; baseline: not given; direction: higher = stronger binding
Target: Histone acetyltransferase KAT6A, both winged helices, GST fusion (KAT6A, Homo sapiens, UniProt Q92794, residues 1-181)
Setting: 8-mer, flanks averaged, mean of 2 arrays, mostly near background
Construct (chain): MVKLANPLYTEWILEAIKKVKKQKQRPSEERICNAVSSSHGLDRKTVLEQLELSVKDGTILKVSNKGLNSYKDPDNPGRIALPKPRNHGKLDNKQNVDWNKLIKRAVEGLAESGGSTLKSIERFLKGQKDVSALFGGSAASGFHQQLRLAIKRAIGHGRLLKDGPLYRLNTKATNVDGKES
Sequence | E-score
AAATTTGC | 0.0744
AAGTCAGT | -0.0379
ACCTGTGA | -0.0731
GGTAACGA | 0.035
GCGATAGA | 0.0757
AAAGGGAC | -0.0571
ATATTAGA | -0.0296

Series 3 — technique: universal PBM; form: double-stranded DNA, one strand shown; sample: in vitro; concentration: not given; direction: higher = stronger binding
Target: Sal-like protein 4, full length isoform B (SALL4, Homo sapiens, UniProt Q9UJQ4-2, residues 1-616)
Setting: 8-mer, flanks averaged, mean of replicates
Target sequence (chain): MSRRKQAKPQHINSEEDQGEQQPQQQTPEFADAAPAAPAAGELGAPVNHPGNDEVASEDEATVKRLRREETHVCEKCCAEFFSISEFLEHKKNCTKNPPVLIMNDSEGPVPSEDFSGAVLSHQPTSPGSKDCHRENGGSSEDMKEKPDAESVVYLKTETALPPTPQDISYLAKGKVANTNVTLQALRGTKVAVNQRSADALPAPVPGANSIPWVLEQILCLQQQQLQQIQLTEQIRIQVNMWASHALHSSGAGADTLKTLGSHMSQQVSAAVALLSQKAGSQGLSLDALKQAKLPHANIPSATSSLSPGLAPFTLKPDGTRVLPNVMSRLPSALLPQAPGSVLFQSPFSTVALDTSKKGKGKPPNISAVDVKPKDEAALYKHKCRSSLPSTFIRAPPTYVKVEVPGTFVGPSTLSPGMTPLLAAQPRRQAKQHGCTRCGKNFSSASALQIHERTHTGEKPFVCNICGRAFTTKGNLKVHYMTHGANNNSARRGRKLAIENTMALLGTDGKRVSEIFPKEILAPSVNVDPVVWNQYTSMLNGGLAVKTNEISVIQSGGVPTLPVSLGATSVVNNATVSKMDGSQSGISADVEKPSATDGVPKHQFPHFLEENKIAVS
Sequence | E-score
CATTCGAG | -0.0194
CCTCCAGA | 0.0361
CCCCTAGC | -0.257
ATACTGAA | 0.232
ATGGTCGA | 0.0545
ACCTCCGG | -0.289
CGGGTCTA | -0.0665
CAACGCTG | -0.152

Further values, each from its own experiment
Molecule | target | assay | system | conditions | how to read | quantity | result
PhoQ, residues 284 288 289 292 302 303 TVTVVA | PhoP, residues 12 14 15 18 19 LQHIR (Escherichia coli, UniProt P23836) | Sort-seq, refers to: YFP reporter | E. coli | PhoQ-PhoP variant library, together with: 10 µM Mg2+ | baseline: high Mg2+ state, higher = stronger signaling | fold induction | 6.91

Excerpt of the above (series 3):
Sequence | E-score
CCTCCAGA | 0.0361
CGGGTCTA | -0.0665
ACCTCCGG | -0.289
